Measured values gathered from unrelated publications.
A part holds a random share of what one study measured. “And” joins repeats or separate records; there may be more than shown. Positions count from the first letter of the parent shown.
Chain of UniProt P08173 (whole entry, looked up): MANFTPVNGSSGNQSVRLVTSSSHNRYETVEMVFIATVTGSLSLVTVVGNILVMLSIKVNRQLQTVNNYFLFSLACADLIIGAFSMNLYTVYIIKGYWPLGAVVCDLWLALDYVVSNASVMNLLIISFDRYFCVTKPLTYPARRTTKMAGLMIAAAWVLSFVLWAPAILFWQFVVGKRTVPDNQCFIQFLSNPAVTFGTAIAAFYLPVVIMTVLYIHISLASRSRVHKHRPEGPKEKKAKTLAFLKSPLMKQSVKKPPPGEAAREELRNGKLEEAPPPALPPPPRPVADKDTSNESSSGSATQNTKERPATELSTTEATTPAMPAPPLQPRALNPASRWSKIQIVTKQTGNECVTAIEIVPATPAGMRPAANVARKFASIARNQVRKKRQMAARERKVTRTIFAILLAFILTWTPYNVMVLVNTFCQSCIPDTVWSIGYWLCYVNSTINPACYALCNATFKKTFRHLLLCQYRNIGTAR

Set 1 — target: tungstate, free oxyanion; method: microfluidic competitive inhibition; matrix: in vitro, cell-free expressed; tested at: not given; direction: lower = stronger binding; measurement: oxyanion analog dissociation constant
Notes: derived from inhibition constants, unchanged parent 2230 nM
Starting sequence: PafA, mature enzyme, eGFP fusion (Elizabethkingia meningoseptica, UniProt Q9KJX5); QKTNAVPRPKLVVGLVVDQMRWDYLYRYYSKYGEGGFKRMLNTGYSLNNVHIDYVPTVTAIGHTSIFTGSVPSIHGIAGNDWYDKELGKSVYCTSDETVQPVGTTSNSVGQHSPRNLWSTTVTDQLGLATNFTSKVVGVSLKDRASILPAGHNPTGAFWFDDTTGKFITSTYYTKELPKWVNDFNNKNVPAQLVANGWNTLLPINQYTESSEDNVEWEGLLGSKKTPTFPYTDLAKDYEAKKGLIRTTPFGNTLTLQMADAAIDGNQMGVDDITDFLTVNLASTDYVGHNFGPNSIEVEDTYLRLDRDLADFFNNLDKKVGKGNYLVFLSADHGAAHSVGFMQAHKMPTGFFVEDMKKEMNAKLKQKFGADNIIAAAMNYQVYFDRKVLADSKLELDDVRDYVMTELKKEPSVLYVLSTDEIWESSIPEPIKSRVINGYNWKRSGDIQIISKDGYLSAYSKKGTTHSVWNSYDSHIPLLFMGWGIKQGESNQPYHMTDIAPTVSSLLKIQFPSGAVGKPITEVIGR
M481V: 2.03 µM
F328G: 1.58 µM
S108G: 2.34 µM
T123V: 1.8 µM
L25G: 2.5 µM
M20V: 2.52 µM
P519G: 2.7 µM
T253V: 1.36 µM

Set 2 — target: CCNE1, cyclin fold, Cln2 fusion (human); method: yeast growth competition, sequencing; matrix: yeast; notes: strong parent motif; reference: not given; direction: higher = stronger binding; measurement: normalised enrichment score; starting sequence: viral docking peptide; YKVKRRLVFGADD
YKVKRRLVFNADD [G10N]: 5.9
YKVKRPLVFGADD [R6P]: 0.45
YKVKRCLVFGADD [R6C]: 3.21
YKVKRRLVFGATD [D12T]: 5.04
YKVKRRLVFKADD [G10K]: 4.31
YKVKRILVFGADD [R6I]: 4.65
YKVKCRLVFGADD [R5C]: 0.845
YKVKRRLVPGADD [F9P]: 0.124

Other studies, line by line
CNC(=O)c1ccc(-c2cnn3ccc(C(=O)N(C)c4ccc(Cl)c(C(=O)OC)c4)cc23)cc1 — luminescence (Cryptosporidium parvum; time-kill; nanoluciferase-expressing; 9 nM, 4 h; reference: DMSO): 116% and 113%
Cc1c(N2CCNCC2)nc2ccc(Br)cc2c1C(=O)NC[C@H](CCC(=O)O)c1ccccc1Cl — inhibition (CHRM4 (Homo sapiens, UniProt P08173); ligand displacement; 10 µM): 16.2%

Repeated from above (set 2):
YKVKRPLVFGADD [R6P]: 0.45
YKVKRRLVFNADD [G10N]: 5.9
YKVKRRLVFKADD [G10K]: 4.31
